# Results collected from several papers.
# A part holds a random share of what one study measured.

# Sample 1
# Target: Prothrombin, mature alpha-thrombin (F2, Homo sapiens, UniProt P00734)
# Method: aptamer microarray, sandwich
# Molecule type: DNA with 2'F-ANA
# Matrix: in vitro
# Concentration: 200 nM
# Notes: whole 15-mer aptamer, many near background
# Together with: Cy3 exosite-II aptamer, 400 nM
# Reading: higher = stronger binding
# Strand: GGTTGGTGTGGTTGG
Modification,mean fluorescence intensity
2'F-ANA at 4 5 6 8 10 12 13 15,48.7 a.u.
2'F-ANA at 3 5 6 7 8 9 11 14 15,64.7 a.u.
2'F-ANA at 2 3 5 6 8 9 12 14 15,58 a.u.
2'F-ANA at 2 4 5 8 15,72.1 a.u.
2'F-ANA at 1 3 4 5 8 10 11,51 a.u.
2'F-ANA at 1 3 7 9 11 12 14 15,101 a.u.
2'F-ANA at 1 2 6 12 13 14 15,62.4 a.u.
2'F-ANA at 2 6 11 13 14 15,95.9 a.u.
2'F-ANA at 2 4 6 7 10 11 13,67.5 a.u.
2'F-ANA at 1 3 6 7 9 13,164 a.u.
2'F-ANA at 4 5 6 8 11 12 13 14 15,45.5 a.u.
2'F-ANA at 1 4 6 10 11 12 13 14,45.4 a.u.
2'F-ANA at 1 3 7 8 10 15,126 a.u.
2'F-ANA at 3 6 7 8 9 12 13,1110 a.u.
2'F-ANA at 1 2 3 4 6 8 9 11 12,282 a.u.
2'F-ANA at 1 3 4 5 6 10 15,76.4 a.u.
2'F-ANA at 4 5 8 10 12 13 14,44.7 a.u.
2'F-ANA at 2 3 5 6 7 11 14 15,50.5 a.u.
2'F-ANA at 1 2 4 6 7 12 13 15,188 a.u.
2'F-ANA at 4 6 7 8 11 14 15,101 a.u.
2'F-ANA at 2 3 4 8 9 12 13,644 a.u.
2'F-ANA at 1 3 6 12 15,443 a.u.
2'F-ANA at 1 3 5 7 12 14 15,44 a.u.
2'F-ANA at 6 9 10 12 15,176 a.u.
2'F-ANA at 1 2 4 5 6 9 10 11 14,48.2 a.u.

# Sample 2
# Organism: Saccharomyces cerevisiae
# Observed: peptide binding
# Method: yeast competitive growth sequencing
# Molecule type: peptide
# Strain: cyclin F-Cln2 fusion
# Concentration: concentration not given
# Notes: Cln2 background subtracted
# Reading: direction not given
Molecule,binding score
EDLLKELQKQLEE,-0.173
REPARRLFLFGEE,5.65
APPRKALFTYPKG,1.76

# Sample 3
# Target: Histone acetyltransferase KAT6A, winged helix 1, GST fusion (KAT6A, Homo sapiens, UniProt Q92794, residues 1-85)
# Method: protein binding microarray
# Molecule type: double-stranded DNA, one strand shown
# Matrix: in vitro
# Concentration: not given
# Notes: 8-mer, flanks averaged, mean of 2 arrays, mostly near background
# Reference: not given
# Reading: higher = stronger binding
# Target sequence (chain): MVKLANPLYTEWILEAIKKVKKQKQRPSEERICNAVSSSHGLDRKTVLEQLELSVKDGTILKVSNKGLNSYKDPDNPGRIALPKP
Strand,E-score
CAGGTGAC,-0.059
AGCAAAAG,-0.137
CCACACGG,0.214
AACGTAGT,-0.0974
AGATGTGG,-0.282
AGAGTCCT,-0.11
ATAGGACC,-0.0573
AAGTCTCA,-0.243
GGACTAAA,0.0357
ATCACCCA,-0.245
ACTCGACC,-0.0509
GCGGCTAA,0.308
ATGATGTC,-0.0166
CGAATCTC,0.0159
GACACCTC,-0.0119
ATAGTCAT,-0.175
GAATGGGA,-0.238
CGCGCGAC,0.432
GTCGGTCA,0.00607
ACCGAGGC,-0.0301
AAGCTGGT,-0.18

# Sample 4
# Target: RING finger protein unkempt homolog, zinc fingers 1-6, GST-SBP tag (UNK, Homo sapiens, UniProt Q9C0B0, residues 30-357)
# UniProt Q9C0B0, sequence (30-357, looked up): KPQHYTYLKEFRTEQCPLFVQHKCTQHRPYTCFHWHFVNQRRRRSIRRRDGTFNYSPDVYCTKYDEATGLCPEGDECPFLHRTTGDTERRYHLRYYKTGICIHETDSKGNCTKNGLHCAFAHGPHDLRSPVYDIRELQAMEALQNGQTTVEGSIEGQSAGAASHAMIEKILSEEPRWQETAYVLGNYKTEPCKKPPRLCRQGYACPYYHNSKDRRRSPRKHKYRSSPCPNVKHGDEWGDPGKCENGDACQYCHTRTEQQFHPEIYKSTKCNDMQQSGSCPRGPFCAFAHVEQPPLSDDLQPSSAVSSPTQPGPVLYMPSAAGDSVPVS
# Method: RNA Bind-n-Seq
# Molecule type: RNA
# Matrix: in vitro
# Concentration: not given
# Notes: RNA with constant flanks, ends assumed
# Reference: input RNA pool
# Reading: higher = stronger binding
Strand,bound/input enrichment [ratio]
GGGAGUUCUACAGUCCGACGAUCAAUGUUCUCGAUGCCAAUCUCUGCUUGAAAGGAGAAGACUUGGAUUCUCAGGUUGGAGUAACCGAUUUUUCCCUCUACCUUAAGGAUGUGCAGGAUCUUGAUGGUGGCAAGGAGCAUGAACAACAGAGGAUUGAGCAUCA,0.282
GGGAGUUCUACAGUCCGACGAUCGUGACCUGUGAGGACAUAAUGCCUUGGUUUUUUCUAAUGUAGAUGAUAUGGCUGUGAUACAUCCGGGCCAGCGUUAACCUCUGCUCCUCCUCCCUCUGUAGUUUUUACCUACAAUCAAUUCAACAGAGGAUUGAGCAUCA,0.278
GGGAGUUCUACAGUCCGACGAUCGUCAGCUGGGGUACAAAGGCCCAGCCUAUAGACUCCAUAUUAGCAGACUGGAAUGAAGACACCGAAGCAUUUGAAAUGAUGGAGAAGGAUGAACUAUGACUCUCUGGAAAGACUCUGGUGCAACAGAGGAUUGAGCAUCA,0.739
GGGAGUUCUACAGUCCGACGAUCAUAACUUCUAAGGAUAAUUUAGAAGAUGAGACUGAAGAUGAUGACCUAUUUGAAACUGAGUUCCGACAAUAUAAAAGAACAUAUUACAUGACGAAGAUGGGGGUUGACGUAGUAUCUGAUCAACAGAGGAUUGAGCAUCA,0.477
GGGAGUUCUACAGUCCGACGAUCAUGCUUGGUUGUAAGACACCAAUAGGAAAACCAGCCACUGCAAAACUUUAAUAAUCAACAAACCGUUAUGGAAAAUUCGGUCACGUAAUUACUCUCAUCGAAGGACUCAUUACAACAAACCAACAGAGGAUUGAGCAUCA,1.3
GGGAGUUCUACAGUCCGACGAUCCUGGACGAGUUUCUAGUGAAAAAUGACCCCUGCCGAGCACGAGGCAGAACUAACACCGAACUCCGAGAGAAAUUCAUCCUGCCAGAAGGGGCAUCUCAGGGGAUGACUCCAUUCCGGUCACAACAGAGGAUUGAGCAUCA,0.114
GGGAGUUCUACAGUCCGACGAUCGAUGUGUGUGUGAUGGUUAUUUUGUUUUGUUUUGUUUUGUUUUGUGACAGGGUCUCUCUCCACCGACAUAGUCCUGGCUAUUCUAGAGCUCACUGUGUAGACCAGGCUGGCCUUGAACAGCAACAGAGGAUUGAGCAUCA,1.07
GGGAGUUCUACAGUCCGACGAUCGCCCAGGCAGCGGCGGCGGCGGCGGCGGUUCCUCUCGGGUUACGGUGAAGAAUGUCAGCCACCCGCGUGGAUCAGAGACCUAAAGGGCAAGGAAAUAAAGUUUCAGUACAAAAUGGUUCGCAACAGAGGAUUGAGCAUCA,0.22

# Sample 5
# Target: RNA binding protein fox-1 homolog 2, RRM domain, GST-SBP tag (RBFOX2, Homo sapiens, UniProt O43251-10, residues 100-194)
# Method: RNA Bind-n-Seq
# Molecule type: RNA
# Matrix: in vitro
# Concentration: 365 nM
# Notes: natural RNA segment, single round, ends assumed
# Reference: no-protein control
# Reading: higher = stronger binding
# Construct (chain): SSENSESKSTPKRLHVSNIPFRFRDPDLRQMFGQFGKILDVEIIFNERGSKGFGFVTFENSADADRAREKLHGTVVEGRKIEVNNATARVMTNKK
Strand,RBNS enrichment (R)
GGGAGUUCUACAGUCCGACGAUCUGAUUAACCAUUUUUUUUUUAGUUUAUAUUAGUACUUUGUACAUAGUAGGCAUUUAGCAAACAUUUAUUGACAAAAAAUAAAACAAAAACUGACAAAUGAAUGUGUAUAAUGGAAUUCUCGGGUGCCAA,0.373
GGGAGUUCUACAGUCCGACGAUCUAAGGUCCUGCUUUCUCCACCUGGAACCAAUGUCGGCAAUACCUAGUCCCACUUCUCAAACUGGAGCCUCCUCCUUUAUGUAUUUAUAUGUAUGUUUUAUGUAGUCCUCCUGGAAUUCUCGGGUGCCAA,1.25
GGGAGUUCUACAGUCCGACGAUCUUUAAAGGCAAUGUACAGCUAUACUUUUUUAUAUGCUCUUCCAGUCAGUUAAAUUAUGGCCUACACUGAUCUGAGAUGUUCUCCACGUGAGCUGUCUUCAUUUCUCUGUGUGGAAUUCUCGGGUGCCAA,0.309
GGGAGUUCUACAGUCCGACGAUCUCAGGAUAAAGCACGGAUGGAUAAAGAAUAUUUGUCCCUUAUGGCUGAGCUAGGGGAAGCUCCUGUCCCUGCAUCUGUGGGCUCUACCUCUGGGCCUGCCACCACGCCCCUGGAAUUCUCGGGUGCCAA,1.84
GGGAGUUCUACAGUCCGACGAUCGUGCCGGGCAGGAGCAUGGGGUGCUUGGUUGUUUCCUUCCUAAUAAAAUAAACGCGGGUCGCCAUGCGUUGGGCCUCUUGUCGCUCAUUUCUGCGCUGGGCUUUAGGCGCUGGAAUUCUCGGGUGCCAA,0.539
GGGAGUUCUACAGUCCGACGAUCAACGUUUUGCUUCCUUCAGUUCUACUUCUCUGUGGUUGGUUUCGGUGUCGCCCUUCAGGAACUCAGAACCCGGGUGUCAGCUCUUAACAUCUCUAAGCCUUUUAAUAAAAUGGAAUUCUCGGGUGCCAA,0.537
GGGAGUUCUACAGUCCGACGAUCGCCAAGCAUUUGAACACUUUUUAUAUAAAAUUGUGUGAUGUCUCUUUAUGUCUGCUCUGAGCCUUAAAACACAGGUUGAAGAAGAAAAGAAAGGAAAAAAAAGUGAAAGUUGGAAUUCUCGGGUGCCAA,0.718
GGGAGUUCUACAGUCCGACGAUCCCAGGUAGAGGCAGCUGUGUGUGGAGAUGCAGUGUGUUCCUAGAGAAGGUGAACAACCUGAAAGCGCCUGUGAAGGGAACCAGUCACUCUUCUGUACCUCUCUUCUCUUAUGGAAUUCUCGGGUGCCAA,0.62
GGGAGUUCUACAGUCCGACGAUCGUAAAAUGACGGAAUCAGCAUGUGAGUAAGGAUCGCUUUCCUCAAAGGUUACCCUCCCACCCCCGCUAUUUCUCAUGAUUCGUCAAUAUCUAGGUUAGGUAUUGAAAGAUUGGAAUUCUCGGGUGCCAA,5.32
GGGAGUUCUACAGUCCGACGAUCACCCACCUUUGGGUGAUGGGUGCCUUAGGUCCCCAGCAGCUGUACAGAAGGGGCUCUUCUCUCCACAGAGCUGGGGUGCAGCCCCAACAUGUGAUUUUGAAUGAGUGUAAUGGAAUUCUCGGGUGCCAA,0.536
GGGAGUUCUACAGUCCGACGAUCCCAGUUCUCAUAAAUAUUGAUCACUUAAAAAACUUACUCUUUCUUGAAAAGGUACACAUGUAAAAUUUAGGAAAAUAACUAAAGUAGGGGCUGGAACCAUAAGAAGAAUGUGGAAUUCUCGGGUGCCAA,0.466
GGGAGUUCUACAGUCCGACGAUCCCCAGUGUCACUAGAUGUCACACACAUUUGUGGUGCUUUGAUGUUUGCAAGUCUAACCUCUGAACAUAAAUUUGGUCAAAUAAUUGGAACAAAGGGAAACAGAUACUUGAUGGAAUUCUCGGGUGCCAA,0.303
